Published values of several laboratories.
± marks the error that the study gave.
Target: Apoptosis regulator Bcl-2 (BCL2, Homo sapiens, UniProt P10415)

`CC[C@H](C)[C@H](NC(C)=O)C(=O)N[C@H](CC(=O)N[C@H](C(=O)N[C@@H](C)C(=O)N[C@@H](CCC(N)=O)C(=O)N[C@@H](CCC(=O)O)CC(=O)N[C@@H](CC(C)C)C(=O)N[C@@H](CCCNC(=N)N)C(=O)N[C@@H](CCCNC(=N)N)CC(=O)N[C@H](C(=O)NCC(=O)N[C@@H](CC(=O)O)C(=O)N[C@@H](CCC(=O)O)CC(=O)N[C@@H](Cc1ccccc1)C(=O)N[C@@H](CC(N)=O)C(=O)N[C@@H](C)CC(=O)N[C@@H](Cc1ccc(O)cc1)C(=O)N[C@@H](Cc1ccc(O)cc1)C(N)=O)[C@@H](C)CC)[C@@H](C)CC)Cc1c[nH]c2ccccc12` has an IC50 of 4890 ± 370 nM (competition SPR; pH 7.4, with: BimBH3 peptide).
For `O=C(O)c1csc(C2COc3ccccc3O2)n1` (stereo not shown), the Ki was 300000 nM (ligand displacement, FP).
For `CC1=C(C2=C(C)C(=O)c3c(cc(O)c(O)c3C(C)C)C2=O)C(=O)c2cc(O)c(O)c(C(C)C)c2C1=O` (racemic), the IC50 was 54 nM (ligand displacement, FP).
The Kd of `CC[C@H](C)[C@H](NC(=O)[C@H](Cc1c[nH]c2ccccc12)NC(=O)[C@@H](NC(=O)[C@H](CCC(=O)O)NC(=O)[C@@H]1CCCN1C(=O)[C@H](CCCNC(=N)N)NC(C)=O)[C@@H](C)CC)C(=O)N[C@@H](C)C(=O)N[C@@H](CCC(N)=O)C(=O)N[C@@H](CCC(=O)O)C(=O)N[C@@H](CC(C)C)C(=O)N[C@@H](CCCNC(=N)N)C(=O)N[C@@H](CCCNC(=N)N)C(=O)N[C@@H](C)C(=O)NCC(=O)N[C@@H](CCCCN)C(=O)N[C@H](C(=O)N[C@@H](CC(C)C)C(=O)N[C@@H](CC(N)=O)C(=O)N[C@@H](C)C(=O)N[C@@H](Cc1ccc(O)cc1)C(=O)N[C@@H](Cc1ccc(O)cc1)C(=O)N[C@@H](C)C(=O)N[C@@H](CCCNC(=N)N)C(N)=O)C(C)C` is reported as over 1000 nM (binding, fluorescence polarization; pH 7.8, 37 °C).
`CC[C@H](C)[C@H](NC(C)=O)C(=O)N[C@H](CC(=O)N[C@H](C(=O)N[C@@H](C)C(=O)N[C@@H](CCC(N)=O)C(=O)N[C@@H](CCC(=O)O)CC(=O)N[C@@H](CC(C)C)C(=O)N[C@@H](CCCNC(=N)N)C(=O)N[C@@H](CCCNC(=N)N)C(=O)N[C@H](CC(=O)NCC(=O)N[C@@H](CC(=O)O)C(=O)N[C@@H](CCC(=O)O)C(=O)N[C@H](CC(=O)N[C@@H](CC(N)=O)C(=O)N[C@@H](C)C(=O)N[C@@H](Cc1ccc(O)cc1)C(=O)N[C@H](CC(N)=O)Cc1ccc(O)cc1)Cc1ccccc1)[C@@H](C)CC)[C@@H](C)CC)Cc1c[nH]c2ccccc12` has an IC50 of 107 ± 8 nM (competition SPR; pH 7.4, with: BimBH3 peptide).
For `CC[C@H](C)[C@H](NC(=O)[C@H](CCCNC(=N)N)NC(=O)[C@H](CO)NC(=O)[C@H](CC(C)C)NC(=O)[C@H](CCC(=O)O)NC(=O)[C@H](CCC(N)=O)NC(=O)[C@H](C)NC(=O)[C@@H](NC(=O)[C@H](Cc1c[nH]c2ccccc12)NC(=O)[C@@H](NC(=O)[C@H](CCC(=O)O)NC(=O)[C@@H]1CCCN1C(=O)[C@H](CCCNC(=N)N)NC(=O)c1ccc2c(c1)C(=O)OC21c2ccc(O)cc2Oc2cc(O)ccc21)[C@@H](C)CC)[C@@H](C)CC)C(=O)NCC(=O)N[C@@H](CC(=O)O)C(=O)N[C@@H](CCC(=O)O)C(=O)N[C@@H](Cc1ccccc1)C(=O)N[C@@H](CC(N)=O)C(=O)N[C@@H](C)C(=O)N[C@@H](Cc1ccc(O)cc1)C(=O)N[C@@H](Cc1ccc(O)cc1)C(=O)N[C@@H](C)C(=O)N[C@@H](CCCNC(=N)N)C(N)=O`, the Kd was 7.2 ± 3.1 nM (fluorescence anisotropy).
`CC1(C)CCC(CN2CCN(c3ccc(C(=O)NS(=O)(=O)c4ccc(NCC5COCCO5)c([N+](=O)[O-])c4)c(N4CCCOc5nc6[nH]ccc6cc54)c3)CC2)=C(c2ccc(Cl)cc2)C1` (stereo not shown) gave an IC50 of 0.25 nM (ligand displacement).
With `CN(C)CC[C@H](CSc1ccccc1)Nc1ccc(S(=O)(=O)NC(=O)c2ccc3c(c2)CC[C@@H]2CN(Cc4ccccc4-c4ccc(Cl)cc4)CCN32)cc1[N+](=O)[O-]` the IC50 was 131 nM (ligand displacement, FP).
With `CC1=C(C2=C(C)C(=O)c3c(cc(O)c(O)c3Cc3ccccc3)C2=O)C(=O)c2cc(O)c(O)c(Cc3ccccc3)c2C1=O` (racemic) the IC50 was 21 nM (ligand displacement, FP).
With `C[N+](C)(CC[C@H](CSc1ccccc1)Nc1ccc(S(=O)(=O)NC(=O)c2ccc(N3CCN(Cc4ccccc4-c4ccc(Cl)cc4)CC3)cc2)cc1[N+](=O)[O-])CC(=O)[O-]` the Ki was 500 nM (ligand displacement, FP).
